Published values pooled from the literature.
Each line is one published result; not all experiments were run side by side. Several values in a cell are separate wells, animals, samples, runs or records. Numbers after ± are the reported error.
Cell line: HCT-116

| Compound | assay | setting | scale | quantity | result |
| --- | --- | --- | --- | --- | --- |
| CC(Cc1ccc(Cl)cc1)=C(c1ccc(Cl)cc1)c1ccc(OCCN(C)C)cc1 | cell growth or viability, SRB |  |  | GI50 | 3.03 µM |
| Cc1ccc(C(C)C)cc1.[Au][S]C1=NCCS1.[Cl][Ru][Cl].c1ccc(P(CP(c2ccccc2)c2ccccc2)c2ccccc2)cc1 | cell growth or viability, trypan blue | 48 h |  | IC90 | 23.2 µM |
| Cc1ccc2nc(C)n(/N=C/c3ccc(C(=O)O)cc3)c(=O)c2c1 | cell growth or viability, LDH | 200 µg/mL, 24 h |  | viability | 36% |
| COc1cc(CNC(=O)C[C@H](C)CCC=C(C)C)ccc1OCc1cn(-c2ccc(Cl)c(Cl)c2)nn1 | SRB | 10 µM, 48 h |  | growth percent | 29.8% |
| O=c1c(Cc2ccccc2)nc2ccccc2n1Cc1cn(-c2ccc(S(=O)(=O)Nc3ncccn3)cc2)nn1 | MTT |  | relative to: HCT-116 over normal colonocytes | selectivity index | 2.12 |
| CC1(CO)C(O)CCC2(C)C(C=CC3=CCOC3=O)C(CO)=CCC12 (stereo not drawn) | cell growth or viability, MTT | 20 µM, 48 h |  | inhibition | 3.79% |
| O=C(Cn1c(=O)c(Cc2ccccc2)nc2ccccc21)OCCNCCO | qRT-PCR, item: VEGF | concentration not given, 72 h | relative to: untreated | mRNA level | 0.497 ± 0.015 fold |
| COc1cc(CNC(=O)C[C@H](C)CCC=C(C)C)ccc1OCc1cn(-c2ccc(Br)cc2)nn1 | SRB | 10 µM, 48 h |  | growth percent | 41.9% |
| O=C(CCc1nc2cc(Cl)ccc2[nH]c1=O)Nc1ccc(O)cc1 | MTT |  | relative to: WI-38 IC50 over HCT-116 IC50 | selectivity index | 20 |
| O=C(COc1ccccc1/C=N/Nc1nc(-c2ccc(Br)cc2)cs1)N1CCN(C(=O)COc2ccccc2/C=N/Nc2nc(-c3ccc(Br)cc3)cs2)CC1 | cell growth or viability, SRB | 100 µM, 48 h |  | inhibition | 61.8% |
| COc1cc2c(Oc3ccc(Nc4nn(C)cc4C(=O)NC4CCCCC4)cc3F)ccnc2cc1OCCCCCCC(=O)NO | cell growth or viability, MTT | 0.7 µM |  | inhibition | > 90% |
| NC1=N[N+](=Cc2c3ccccc3cc3ccccc23)[Ga-3]23([S]1)([S]C(N)=N[N+]2=Cc1c2ccccc2cc2ccccc12)[S]C(N)=N[N+]3=Cc1c2ccccc2cc2ccccc12 |  | 72 h | relative to: IC50 CCD-18Co over HCT-116 | selectivity ratio | 4.22 and 4.2 |
| CC(=O)OC[C@H]1O[C@@H](Sc2sc(C(=O)c3ccc(C)cc3)c(N)c2-c2nc3ccccc3s2)[C@H](OC(C)=O)[C@@H](OC(C)=O)[C@H]1OC(C)=O | SRB | 10 µM, 48 h | relative to: untreated | growth | 106% |
| COc1cc(CNC(=O)C[C@H](C)CCC=C(C)C)ccc1OCc1cn(-c2ccccc2F)nn1 | SRB | 10 µM, 48 h |  | growth percent | 60.1% |
| CC(C)C1=C(O)C(=O)C2=C(C1=O)[C@H](O)[C@@H](O)[C@H]1C(C)(C)CCC[C@]21C | cell growth or viability, SRB | 48 h |  | GI50 | ≥ 50 µM |
| COc1ccc(NC(=O)N/N=C2\CC3(CCN(C)CC3)Oc3ccccc32)cc1 | PI staining, flow cytometry | concentration not given, %S |  | cell cycle distribution | 42.7% |
| CSc1nc(Nc2ccc(/C(C)=N/NC(=O)c3ccc([N+](=O)[O-])cc3[N+](=O)[O-])cc2)c(C#N)c(-c2ccccc2)n1 | annexin V-FITC/PI flow cytometry | concentration not given |  | total apoptotic cells | 21.4% |
| O=C(Cn1c(=O)c(Cc2ccccc2)nc2ccccc21)NN1C(=O)c2ccccc2C1=O | qRT-PCR, item: BAX | concentration not given, 72 h | relative to: untreated | mRNA level | 3.04 ± 0.032 fold |

| Compound | assay | setting | scale | quantity | result |
| --- | --- | --- | --- | --- | --- |
| C=C1CC[C@@H]2[C@](C)(CO)[C@H](O)CC[C@@]2(C)[C@@H]1/C=C/C1=CCOC1=O | cell growth or viability, MTT | 20 µM, 48 h |  | inhibition | 0% |
| COc1cc(CNC(=O)C[C@H](C)CCC=C(C)C)ccc1OCc1cn(-c2ccccc2[N+](=O)[O-])nn1 | SRB | 10 µM, 48 h |  | growth percent | 49.1% |
| Cc1ccc(C(C)C)cc1.[Cl][Ru]([Cl])[P](CP(c1ccccc1)c1ccccc1)(c1ccccc1)c1ccccc1 | cell growth, trypan blue exclusion | 48 h, DMSO 1% |  | IC75 | 229 ± 2.3 µM |
| NS(=O)(=O)c1ccc(-n2cc(Cn3c(=O)c(Cc4ccccc4)nc4ccccc43)nn2)cc1 | qRT-PCR, item: VEGF | concentration not given, 72 h | relative to: untreated | mRNA level | 0.615 ± 0.004 fold |
| CC1CCCN(CCCNC(=O)C2=Cc3sc4c(c3CS2)CCCC4)C1 (stereo not drawn) | immunoblot | 20 µM |  | uncleaved SREBP2 level | no effect |
| CCOC(=O)C/C(C)=N/NC(=O)c1nc2ccccc2n(C)c1=O | cell growth or viability, MTT | 10 µM |  | inhibition | 96.4% |
| COC(=O)CCNC(=O)CNC(=O)CCn1nc(Cc2ccccc2)c2ccccc2c1=O |  | 0.32 µM, 48 h |  | early apoptotic cells | 19.9% |
| COCCSc1nc(N)c2c(F)c(C#N)c(F)c(Cl)c2n1 | DAPI staining imaging | 1.02 µM, 24 h |  | cells in G2/M phase | 29.9% |
| N=C(N)NCCC[C@@H](N)C(=O)N[C@@H](CCCNC(=N)N)C(=O)N[C@@H](Cc1ccc2ccccc2c1)C(=O)N[C@@H](CCCNC(=N)N)C(=O)N[C@@H]1CSCc2ccccc2CSC[C@@H](C(=O)N[C@H](CCCNC(=N)N)C(=O)N[C@@H](CC2CCCCC2)C(=O)N[C@@H](CCCNC(=N)N)C(=O)N2Cc3ccccc3C2C(N)=O)NC(=O)[C@H](Cc2cccc3ccccc23)NC(=O)[C@H](Cc2ccc(O)cc2)NC1=O (stereo partly drawn) |  |  |  | EC50 | 10.7 ± 0.7 µM |
| O=C(/C=C/c1ccc(O)cc1)OC(CO)C(=O)O (stereo not drawn) | Wnt/β-catenin signalling, RT-qPCR, item: B9L | 25 µM | relative to: HPRT | mRNA level | no effect |
| N=C(N)NS(=O)(=O)c1ccc(-n2cc(Cn3c(=O)c(Cc4ccccc4)nc4ccccc43)nn2)cc1 | MTT |  | relative to: HCT-116 over normal colonocytes | selectivity index | 3.96 and 3.97 |
| CCOP(=O)(OCC)OCCCCOC(=O)C(C)c1ccc(CC(C)C)cc1 (stereo not drawn) | western blot | concentration not given | relative to: vehicle | nuclear β-catenin level | decreased |
| N=C(N)NCCC[C@@H](N)C(=O)N[C@@H](CCCNC(=N)N)C(=O)N[C@@H](Cc1ccc(C(F)(F)F)cc1)C(=O)N[C@@H](CCCNC(=N)N)C(=O)N[C@@H]1CSCCS(=O)(=O)CCSC[C@@H](C(=O)N[C@H](CCCNC(=N)N)C(=O)N[C@@H](CC2CCCCC2)C(=O)N[C@@H](CCCNC(=N)N)C(=O)N2Cc3ccccc3C2C(N)=O)NC(=O)[C@H](Cc2cccc3ccccc23)NC(=O)[C@H](Cc2ccc(O)cc2)NC1=O (stereo partly drawn) |  |  |  | EC50 | 14.3 ± 2.5 µM |
| COc1ccc(C2=Nn3c(NN=C4C(=O)N(C)c5ccc(Br)cc54)nnc3SC2)cc1 | cell growth or viability, SRB | 10 µM |  | inhibition | 18% |
| N#Cc1c(F)c(F)c2nc(SCc3ccc4ccccc4c3)nc(N)c2c1F | DAPI staining imaging | 2.56 µM, 24 h |  | cells in G2/M phase | 51.8% |
| COc1cc(CNC(=O)C[C@H](C)CCC=C(C)C)ccc1OCc1cn(-c2ccc(F)cc2)nn1 | SRB | 10 µM, 48 h |  | growth percent | 47.9% |
| C=CCSc1nc(N)c2c(F)c(C#N)c(F)c(Cl)c2n1 | DAPI staining imaging | 1.02 µM, 24 h |  | cells in S phase | 8.33% |
| CC(C)(C)CC(C)(C)Nc1c(-c2ccc3c(c2)OCO3)nc2cnccn12 | scratch | 50 µM, 24 h | relative to: untreated | cell migration | 20.6% |

For quick reference, copied from above:
| Compound | assay | setting | scale | quantity | result |
| --- | --- | --- | --- | --- | --- |
| CC(C)C1=C(O)C(=O)C2=C(C1=O)[C@H](O)[C@@H](O)[C@H]1C(C)(C)CCC[C@]21C | cell growth or viability, SRB | 48 h |  | GI50 | ≥ 50 µM |
| COc1ccc(C2=Nn3c(NN=C4C(=O)N(C)c5ccc(Br)cc54)nnc3SC2)cc1 | cell growth or viability, SRB | 10 µM |  | inhibition | 18% |
| C=C1CC[C@@H]2[C@](C)(CO)[C@H](O)CC[C@@]2(C)[C@@H]1/C=C/C1=CCOC1=O | cell growth or viability, MTT | 20 µM, 48 h |  | inhibition | 0% |
